# Measurements gathered from unrelated publications.
# “And” joins repeats or separate records; there may be more than shown. ± marks the error that the study gave.
# Chain of UniProt Q8NEW0 (whole entry, looked up): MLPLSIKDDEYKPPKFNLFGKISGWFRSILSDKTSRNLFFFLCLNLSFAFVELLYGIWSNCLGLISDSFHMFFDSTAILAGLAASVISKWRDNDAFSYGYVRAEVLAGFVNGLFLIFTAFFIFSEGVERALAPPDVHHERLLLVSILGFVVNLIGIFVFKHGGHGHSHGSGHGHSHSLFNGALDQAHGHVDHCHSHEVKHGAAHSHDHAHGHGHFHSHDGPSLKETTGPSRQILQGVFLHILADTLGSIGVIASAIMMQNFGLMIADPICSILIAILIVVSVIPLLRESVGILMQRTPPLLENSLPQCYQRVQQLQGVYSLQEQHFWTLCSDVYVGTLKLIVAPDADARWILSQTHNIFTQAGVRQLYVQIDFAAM
SMILES,target or system,assay,system,conditions,how to read,endpoint,value
CC[C@H](C)[C@H](NC(=O)[C@H](Cc1ccccc1)NC(=O)[C@H](CCC(=O)O)NC(=O)[C@H](CCCNC(=N)N)NC(=O)[C@H](C)NC(=O)[C@H](C)NC(=O)[C@H](CCC(N)=O)NC(=O)[C@H](CCC(=O)O)NC(=O)[C@H](CCC(=O)O)NC(=O)[C@H](CC(C)C)NC(=O)[C@H](Cc1ccc(O)cc1)NC(=O)[C@H](CO)NC(=O)[C@H](CO)NC(=O)[C@@H](NC(=O)[C@H](CC(=O)O)NC(=O)[C@H](CO)NC(=O)[C@@H](NC(=O)[C@H](Cc1ccccc1)NC(=O)[C@@H](NC(=O)CNC(=O)[C@H](CCC(=O)O)NC(=O)[C@H](C)NC(=O)CCc1c[nH]cn1)[C@@H](C)O)[C@@H](C)O)C(C)C)C(=O)N[C@@H](C)C(=O)N[C@@H](Cc1c[nH]c2ccccc12)C(=O)N[C@@H](CC(C)C)C(=O)N[C@H](C(=O)N[C@@H](CCCNC(=N)N)C(=O)NCC(=O)N[C@@H](CCCNC(=N)N)C(=O)N[C@@H](CCCCNC(=O)COCCOCCNC(=O)COCCOCCNC(=O)CC[C@H](NC(=O)CCCCCCCCCCCCCCCCC(=O)O)C(=O)O)C(=O)NCC(=O)NCC(=O)N[C@@H](CO)C(=O)N[C@@H](CCCCNc1c(NCCCCCN(O)C(=O)CCC(=O)NCCCCCN(O)C(=O)CCC(=O)NCCCCCN(O)C(C)=O)c(=O)c1=O)C(=O)O)C(C)C [zirconium-89 labelled],,ex vivo gamma counting,"rat, stomach","subcutaneous, 3 nmol/kg, 4 h, with: [89Zr]-labelled peptide",,tissue uptake,0.12 %ID/g
c1csc(-c2ccc(-c3cccs3)s2)c1,PH5CH8 hepatocytes,high-content cell count,,"72 h, oleate lipid loaded",,CC50,> 10 µM
CC(C)C[C@H](NC(=O)[C@H](C)NC(=O)[C@@H](NC(=O)[C@H](CCCNC(=N)N)NC(=O)[C@H](CC(C)C)NC(=O)[C@H](Cc1c[nH]c2ccccc12)NC(=O)[C@@H]1CCCN1C(=O)[C@@H](N)CCCCN)C(C)C)C(=O)N[C@@H](CS)C(=O)N1CCC[C@H]1C(=O)NCC(=O)O,Vero,WST-1,,"32 µM, 24 h",,viability,98.1% and 99.8% and 100%
CC(c1ccccc1)(c1ccc(O)cc1)c1ccc(O)cc1,"HepG2 spheroids, dissociated",annexin V-FITC/PI flow cytometry,,"10 µM, 96 h",,late apoptotic cells,30.6 ± 11.9%
CC[C@H](C)[C@H](NC(=O)[C@H](Cc1ccc(O)cc1)NC(=O)[C@H](CCCCN)NC(=O)[C@H](CCC(N)=O)NC(=O)[C@@H](NC(=O)[C@H](Cc1c[nH]c2ccccc12)NC(=O)[C@H](CCCCN)NC(=O)[C@H](CCCCN)NC(=O)[C@H](CCCNC(=N)N)NC(=O)[C@@H]1CCCN1C(=O)[C@H](Cc1c[nH]cn1)NC(=O)[C@@H](NC(=O)[C@H](CS)NC(=O)[C@@H](NC(=O)[C@H](CCCCN)NC(=O)[C@H](CCCCN)NC(=O)CNC(=O)[C@H](CCCNC(=N)N)NC(=O)[C@H](CCCCN)NC(=O)[C@@H](NC(=O)[C@@H](NC(=O)[C@H](Cc1ccccc1)NC(=O)[C@@H](NC(=O)[C@@H](NC(=O)[C@H](C)NC(=O)[C@@H](N)CCCNC(=N)N)C(C)C)[C@@H](C)CC)[C@@H](C)O)[C@@H](C)O)C(C)C)[C@@H](C)O)C(C)C)C(=O)N[C@@H](CO)C(=O)N[C@@H](CC(C)C)C(=O)N[C@@H](CC(C)C)C(=O)N[C@@H](CCCCN)C(=O)N[C@H](C(=O)N1CCC[C@H]1C(=O)N[C@@H](CCCCN)C(=O)N[C@@H](CCC(N)=O)C(=O)N[C@@H](CC(C)C)C(=O)O)[C@@H](C)O,PMA-differentiated THP-1,"cell viability, MTT",,24 h,,CC50,55.1 µM
Oc1ccc(C2(c3ccc(O)cc3)c3ccccc3-c3ccccc32)cc1,"HepG2 spheroids, dissociated",annexin V-FITC/PI flow cytometry,,"10 µM, 96 h",,early apoptotic cells,6.09 ± 5.03%
N=C(N)NCCC[C@H](NC(=O)CN)C(=O)N[C@@H](Cc1c[nH]c2ccccc12)C(=O)N[C@@H](CCCNC(=N)N)C(=O)N[C@@H](Cc1c[nH]c2ccccc12)C(=O)N[C@@H](Cc1c[nH]c2ccccc12)C(=O)N[C@@H](Cc1c[nH]c2ccccc12)C(=O)N[C@@H](CCCNC(=N)N)C(=O)N[C@@H](Cc1c[nH]c2ccccc12)C(=O)N[C@@H](CCCNC(=N)N)C(=O)N[C@@H](Cc1c[nH]c2ccccc12)C(N)=O,PK-15,,,,,LC50,102 µM
CC(C)(c1ccc(O)cc1)c1ccc(O)cc1,"HepG2 spheroids, dissociated",annexin V-FITC/PI flow cytometry,,"0.01 µM, 96 h",,late apoptotic cells,19 ± 3.18%
COc1cc2c(Oc3ccc4[nH]c(C)cc4c3F)ccnc2cc1OCC1(N)CC1,,,paediatric recurrent refractory sarcoma,"concentration not given, whole group",,grade 3 Rash,0%
CC[C@H](C)[C@@H]1NC(=O)[C@@H]2CCCN2C(=O)[C@H](CC(C)C)NC(=O)[C@H](CC(C)C)NC(=O)CNC(=O)[C@@H](NC(=O)[C@@H](NC(=O)[C@H](CC(=O)O)NC(=O)CNC(=O)[C@@H](NC(=O)[C@H](C)NC(=O)CNC(=O)[C@H](CCCCN)NC(=O)[C@H](CC(C)C)NC(=O)[C@H](CC(C)C)NC(=O)[C@H](CCCCN)NC(=O)CNC(=O)[C@@H](NC(=O)[C@@H](N)CC(C)C)C(C)C)C(C)C)C(C)C)CSSC[C@@H](C(=O)O)NC1=O,,"RNA-seq, measured: Filip1l","mouse, traumatic brain injury model, frontal cortex and hippocampus",dose not given,baseline: TBI alone,log2 fold change,-1.04
C[C@H]1CN(c2n[nH]c3nc(N[C@H]4CC[C@H](NS(=O)(=O)CCC(F)(F)F)CC4)ncc23)CCO1,"Zinc transporter 7 (Homo sapiens, UniProt Q8NEW0)","Kinobeads competition, measured: SLC30A7",,"0.8 µM, unit not given",baseline: vehicle,remaining binding,1.19
CCCCc1nc(N)[nH]c(=O)c1Br,HeLa,cell morphology alteration,,,,minimum cytotoxic concentration,100 µM
CO[C@H]1/C=C\C=C(/C)C(=O)NC2=CC(=O)C(NCCN(C)C)=C(C[C@@H](C)C[C@H](OC)[C@H](O)[C@@H](C)/C=C(\C)[C@@H]1OC(N)=O)C2=O,MYBPC3-mutant iPSC cardiomyocytes,cell viability,,24 h,,EC50,> 60 µM
CO[C@H]1C[C@@H]2CC[C@@H](C)[C@@](O)(O2)C(=O)C(=O)N2CCCC[C@H]2C(=O)O[C@H]([C@H](C)C[C@@H]2CC[C@@H](OC(=O)NCCOCCOCCOCCOCCOCCOCCOCCOCCC(=O)N3CCc4cc(Cn5nc(-c6ccc7oc(N)nc7c6)c6c(N)ncnc65)ccc4C3)[C@H](OC)C2)C[C@@H](O)[C@H](C)/C=C(\C)[C@@H](O)[C@@H](OC)C(=O)[C@H](C)C[C@H](C)/C=C/C=C/C=C/1C,,,patients with advanced solid tumours,"intravenous, 1.6 mg/3 mg weekly, grade ≥3",,incidence of Mucositis TRAE,0%
C=C1C(=O)[C@]23[C@H](O)[C@H]1CC[C@H]2[C@@]12CO[C@]3(O)[C@@H](O)[C@@H]1C(C)(C)CC[C@@H]2O,THP-1 ASC-GFP monocytes,MTT,,24 h,,maximum tolerated dose,3.11 µg/mL
O=c1ccc2ccccc2o1,NHEK,"ER stress, measured: BiP",,"concentration not given, 6 h",,chance response,0.08%

# A few entries again:
SMILES,target or system,assay,system,conditions,how to read,endpoint,value
Oc1ccc(C2(c3ccc(O)cc3)c3ccccc3-c3ccccc32)cc1,"HepG2 spheroids, dissociated",annexin V-FITC/PI flow cytometry,,"10 µM, 96 h",,early apoptotic cells,6.09 ± 5.03%
